Results pooled from the literature.
A part holds a random share of what one study measured. Positions count from the first letter of the parent shown.

Series 1
Target: CCNB3, cyclin fold, Cln2 fusion (human)
Technique: yeast growth competition, sequencing
Medium: yeast
Notes: strong parent motif
Reference: not given
Reading: higher = stronger binding
Parent: BRCA2 docking peptide (human); PSIKRNLLNEFDR; partner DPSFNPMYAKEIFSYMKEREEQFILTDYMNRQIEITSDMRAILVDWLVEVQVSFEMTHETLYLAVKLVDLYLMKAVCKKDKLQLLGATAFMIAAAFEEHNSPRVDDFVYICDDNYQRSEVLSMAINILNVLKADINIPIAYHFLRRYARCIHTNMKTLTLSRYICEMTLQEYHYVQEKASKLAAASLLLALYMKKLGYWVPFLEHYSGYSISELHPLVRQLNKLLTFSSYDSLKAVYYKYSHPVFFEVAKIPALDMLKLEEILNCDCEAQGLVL
For `R5N`, “normalised enrichment score” read -0.132.
Under “normalised enrichment score”, `F11L` is recorded as 0.141.
`R5E` — result for “normalised enrichment score”: -0.0758.
For `F11V`, “normalised enrichment score” read 0.28.
`L8N` — result for “normalised enrichment score”: 0.64.
For `D12P`, “normalised enrichment score” read 0.853.
For `L8V`, “normalised enrichment score” read 0.564.
`N6W`: “normalised enrichment score” 0.383.
`L7F` — result for “normalised enrichment score”: 0.134.
For `F11G`, “normalised enrichment score” read -0.127.
Under “normalised enrichment score”, `L7T` is recorded as 0.371.
Under “normalised enrichment score”, `P1T` is recorded as 1.1.
`R5P` — result for “normalised enrichment score”: 0.308.
For `D12K`, “normalised enrichment score” read 0.386.
For `N6Y`, “normalised enrichment score” read 0.0784.
For `S2L`, “normalised enrichment score” read 1.85.
For `N9V`, “normalised enrichment score” read 1.26.
For `N9A`, “normalised enrichment score” read 2.78.

Series 2
Target: CREB3L3, bZIP domain (human)
Technique: DHFR protein complementation
Medium: yeast
Notes: single substitutions, most at no-binding floor
Reference: wild-type JUN-FOS pair
Reading: higher = stronger binding
Parent: JUN, bZIP domain (human); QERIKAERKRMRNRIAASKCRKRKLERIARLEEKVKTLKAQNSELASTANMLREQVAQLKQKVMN; partner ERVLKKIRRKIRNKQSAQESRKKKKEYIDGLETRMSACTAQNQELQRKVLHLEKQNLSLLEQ
The binding fitness of `T48V` is reported as -1.44 natural log.
With `R30S` the binding fitness was -1.4 natural log.
For `A46G`, the binding fitness was -1.49 natural log.
For `V56P`, the binding fitness was -1.52 natural log.
The binding fitness of `Q58S` is reported as -1.41 natural log.
With `E54Y` the binding fitness was -1.55 natural log.
With `A49N` the binding fitness was -1.33 natural log.
`L38S` gave a binding fitness of -1.5 natural log.
`M51A` has a binding fitness of -1.47 natural log.
`E44R` gave a binding fitness of -1.56 natural log.
For `I28E`, the binding fitness was -1.34 natural log.
With `S47K` the binding fitness was -1.37 natural log.
With `E54G` the binding fitness was -1.27 natural log.
`A46F` gave a binding fitness of -1.56 natural log.
`V35T` gave a binding fitness of -1.48 natural log.
The binding fitness of `A46L` is reported as -1.41 natural log.
For `M51W`, the binding fitness was -1.37 natural log.

Series 3
Target: Fragile X messenger ribonucleoprotein 1, C-terminal low-complexity region (Fmr1, Mus musculus, UniProt P35922)
Technique: RNA Bind-n-Seq
Form: RNA
Medium: in vitro
Tested at: 200 nM
Notes: whole 134-nt RNA, ends assumed
Together with: 150 mM LiCl
Reference: input library
Reading: higher = stronger binding
All molecules: 7-deaza-guanosine replaces G
Shared flanks, not repeated: GGGAGUUCUACAGUCCGACGAUC … UGGAAUUCUCGGGUGUCAAGG
The log2 enrichment of `AAGUCCUGUGCUACACAUCGUAUGUACCGAAUCGGGAAAAGGGAAAAGGAAAAGGGGAAAGUAUUAUGUUACGCCGUUCGGAUCUGCACU` is reported as 0.292.
The log2 enrichment of `CAAGUCCUGUGCUACACAUCGUAUGUACCGAAUCGGAAAAGGAAAAGGGAAAAGGAAAGUAUUAUGUUACGCCGUUCGGAUCUGCACUUC` is reported as -0.701.
For `UCAAGUCCUGUGCUACACAUCGUAUGUACCGAAUCGGUGGAAAAAAAGGAAAGGAAAGUAUUAUGUUACGCCGUUCGGAUCUGCACUUCC`, the log2 enrichment was -1.31.
The log2 enrichment of `CCCAUGCAGGUGGGCAUCUUUGGGAAGUGGGGCAAGGGGGGGAUAGGGAGGGGGGUAACACUUUGGGAACAGGUGGUCCCAGGUCGUUUC` is reported as 1.13.
The log2 enrichment of `CAAAGACAACACGCACCCACACAGACACAGAGGGAAGGGGUUGGGAUGGGGACAGGGUGCACAGCAGGGCGGGGUAGGACCCCAGCCCCU` is reported as 0.661.
With `AGUCCUGUGCUACACAUCGUAUGUACCGAAUCAAAUUUAAACCCAAAUUUUUUUAAAAAAGUAUUAUGUUACGCCGUUCGGAUCUGCACU` the log2 enrichment was -1.91.
The log2 enrichment of `AAGUCCUGUGCUACACAUCGUAUGUACCGAAUCGGGCCCCGGGGCCCCGGCCCCGGAAAGUAUUAUGUUACGCCGUUCGGAUCUGCACUU` is reported as -1.85.
`GUCCUGUGCUACACAUCGUAUGUACCGAAUCGGGUUUUUUGGUUUUUUGGUUUUUUGGAAAGUAUUAUGUUACGCCGUUCGGAUCUGCAC` has a log2 enrichment of -1.7.
The log2 enrichment of `CAAGUCCUGUGCUACACAUCGUAUGUACCGAAUCGGGAAAAAAAGGGAGGGAGGGAAAGUAUUAUGUUACGCCGUUCGGAUCUGCACUUC` is reported as -0.593.
For `GCAGGAAGUAAAAACAAAUGGAAAUGCUUCGGAUAGUGGCAGGGGUGGGGGAUGCUAAGGAAAGGGUGGGAUGGGAGUGGGUAAAGAGUU`, the log2 enrichment was 1.13.
For `CUGUGCUACACAUCGUAUGUACCGAAUCGGGGCCCCCCCGGGGCCCCCCCGGGCCCCCCCGGAAAGUAUUAUGUUACGCCGUUCGGAUCU`, the log2 enrichment was -2.04.

Series 4
Target: ABI1, truncated, D143A, DHFR fusion (Arabidopsis thaliana)
Technique: DHFR PCA, deep sequencing
Medium: yeast
Notes: methotrexate growth selection, single substitutions
Together with: (+)-ABA 0 µM
Reference: wild-type fitted maximum
Reading: higher = stronger binding
Parent: PYL1, truncated, DHFR fusion (Arabidopsis thaliana); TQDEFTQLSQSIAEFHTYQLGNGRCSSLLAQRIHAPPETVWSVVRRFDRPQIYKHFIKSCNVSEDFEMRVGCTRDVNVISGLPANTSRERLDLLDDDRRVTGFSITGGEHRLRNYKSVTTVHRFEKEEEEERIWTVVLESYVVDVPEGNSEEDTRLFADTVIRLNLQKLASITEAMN
`Y53R` — result for “relative binding score”: 9.1%.
For `R113M`, “relative binding score” read 17.6%.
For `N61P`, “relative binding score” read -1.56%.
For `P50M`, “relative binding score” read -3.91%.
`E127D` — result for “relative binding score”: 34.3%.
Under “relative binding score”, `R99M` is recorded as 78.2%.
Under “relative binding score”, `R90C` is recorded as -2.54%.
`E129W` — result for “relative binding score”: 5.49%.
For `A170E`, “relative binding score” read 1.69%.
Under “relative binding score”, `I33P` is recorded as 2.95%.
Under “relative binding score”, `C60A` is recorded as 0.409%.
For `R24I`, “relative binding score” read 4.98%.
`K116P`: “relative binding score” -0.153%.
For `G108E`, “relative binding score” read -5.09%.
Under “relative binding score”, `T86R` is recorded as 12.7%.
For `G107C`, “relative binding score” read 2.11%.
For `K58E`, “relative binding score” read 15.9%.
For `S26I`, “relative binding score” read 1.56%.
For `R98E`, “relative binding score” read -7.58%.

Series 5
Target: Sal-like protein 4, full length isoform B (SALL4, Homo sapiens, UniProt Q9UJQ4-2, residues 1-616)
Technique: universal PBM
Form: double-stranded DNA, one strand shown
Medium: in vitro
Tested at: not given
Notes: 8-mer, flanks averaged, mean of replicates
Reading: higher = stronger binding
Residues (chain): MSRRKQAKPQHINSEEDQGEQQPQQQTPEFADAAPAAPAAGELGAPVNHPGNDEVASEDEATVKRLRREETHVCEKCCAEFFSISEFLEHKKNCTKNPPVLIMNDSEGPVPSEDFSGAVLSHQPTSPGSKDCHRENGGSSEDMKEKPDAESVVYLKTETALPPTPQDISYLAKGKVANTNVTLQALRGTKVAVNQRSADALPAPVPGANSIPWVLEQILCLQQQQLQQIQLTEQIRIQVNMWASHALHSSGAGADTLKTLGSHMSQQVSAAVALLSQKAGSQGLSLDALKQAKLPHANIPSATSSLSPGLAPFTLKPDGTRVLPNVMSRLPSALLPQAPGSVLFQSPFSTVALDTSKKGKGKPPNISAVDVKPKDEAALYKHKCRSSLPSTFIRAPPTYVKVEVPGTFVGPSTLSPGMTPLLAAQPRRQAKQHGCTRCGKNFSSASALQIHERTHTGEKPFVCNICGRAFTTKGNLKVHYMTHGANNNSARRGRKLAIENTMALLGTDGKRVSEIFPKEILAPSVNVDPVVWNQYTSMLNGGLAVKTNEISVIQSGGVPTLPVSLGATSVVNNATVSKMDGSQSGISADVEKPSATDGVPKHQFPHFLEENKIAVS
`CACTGTGG` has an E-score of -0.238.
`AGGTCCAT` has an E-score of 0.0454.
The E-score of `AGGGGTAT` is reported as -0.0997.
The E-score of `GAGTAGGC` is reported as -0.204.
For `CATCGACG`, the E-score was -0.2.
`ATTCAGCA` has an E-score of 0.147.
`ACCAATAA` has an E-score of 0.254.
With `CGCCCCCG` the E-score was -0.343.
`ACGAAAAT` gave an E-score of 0.343.
`AAATGGTC` has an E-score of 0.121.
`CATGACTA` gave an E-score of 0.0508.
`AATCGCCT` gave an E-score of -0.0495.
`CGCTTTCA` has an E-score of 0.095.
With `AAGAGTTA` the E-score was 0.0942.
With `GTTTCGGA` the E-score was -0.032.
With `CCGTGACA` the E-score was -0.0552.
The E-score of `GCAGCGCA` is reported as -0.227.
With `CACCCCGG` the E-score was -0.233.
`CCCGCGTA` gave an E-score of -0.156.
For `AAAGACTT`, the E-score was 0.133.
The E-score of `GCCTTTCA` is reported as -0.0461.
With `TAAGCATA` the E-score was 0.334.
With `CCGCCGAG` the E-score was -0.289.
For `AGAATACC`, the E-score was 0.058.
`AATCAGCT` gave an E-score of 0.0603.

Series 6
Target: Prothrombin, mature alpha-thrombin (F2, Homo sapiens, UniProt P00734)
Technique: aptamer microarray, sandwich
Form: DNA with 2'F-ANA
Medium: in vitro
Tested at: 200 nM
Notes: whole 15-mer aptamer, many near background
Together with: Cy3 exosite-II aptamer, 400 nM
Reading: higher = stronger binding
Strand: GGTTGGTGTGGTTGG
Under “mean fluorescence intensity”, `2'F-ANA at 1 2 4 5 10 11 15` is recorded as 46.6 a.u.
`2'F-ANA at 1 2 3 7 8 10 12 13 14`: “mean fluorescence intensity” 53.6 a.u.
`2'F-ANA at 1 4 5 9 12 14` — result for “mean fluorescence intensity”: 43.3 a.u.
`2'F-ANA at 1 3 5 6 9 14 15`: “mean fluorescence intensity” 48.9 a.u.
For `2'F-ANA at 3 4 5 7 10 11 13`, “mean fluorescence intensity” read 51.1 a.u.
`2'F-ANA at 4 5 7 9 10 11 13`: “mean fluorescence intensity” 54.6 a.u.
Under “mean fluorescence intensity”, `2'F-ANA at 5 6 7 8 9 11 13` is recorded as 58.5 a.u.
Under “mean fluorescence intensity”, `2'F-ANA at 2 3 6 7 9 11 12 13 14 15` is recorded as 271 a.u.
Under “mean fluorescence intensity”, `2'F-ANA at 1 4 5 8 11 12` is recorded as 142 a.u.
`2'F-ANA at 1 4 5 9 10 11 12 13`: “mean fluorescence intensity” 47.7 a.u.
`2'F-ANA at 2 3 4 8 10 11 12 13 15`: “mean fluorescence intensity” 216 a.u.
`2'F-ANA at 1 3 4 5 8 10 12 15` — result for “mean fluorescence intensity”: 59.5 a.u.
`2'F-ANA at 2 3 4 5 7 8 9 10 13 15`: “mean fluorescence intensity” 101 a.u.
`2'F-ANA at 1 2 5 8 10 11 14 15`: “mean fluorescence intensity” 46.8 a.u.
For `2'F-ANA at 3 9 10 11 15`, “mean fluorescence intensity” read 460 a.u.
`2'F-ANA at 3 4 5 6 7 11 13 15` — result for “mean fluorescence intensity”: 60.6 a.u.
`2'F-ANA at 1 2 4 6 8 9 11 12 13 15` — result for “mean fluorescence intensity”: 150 a.u.
`2'F-ANA at 2 4 7 8 14 15` — result for “mean fluorescence intensity”: 136 a.u.
